{"data": "Assay results gathered from unrelated publications", "note": "A part holds a random share of what one study measured. Changes are numbered by the printed parent chain.", "chain of UniProt O14965 (whole entry, looked up)": "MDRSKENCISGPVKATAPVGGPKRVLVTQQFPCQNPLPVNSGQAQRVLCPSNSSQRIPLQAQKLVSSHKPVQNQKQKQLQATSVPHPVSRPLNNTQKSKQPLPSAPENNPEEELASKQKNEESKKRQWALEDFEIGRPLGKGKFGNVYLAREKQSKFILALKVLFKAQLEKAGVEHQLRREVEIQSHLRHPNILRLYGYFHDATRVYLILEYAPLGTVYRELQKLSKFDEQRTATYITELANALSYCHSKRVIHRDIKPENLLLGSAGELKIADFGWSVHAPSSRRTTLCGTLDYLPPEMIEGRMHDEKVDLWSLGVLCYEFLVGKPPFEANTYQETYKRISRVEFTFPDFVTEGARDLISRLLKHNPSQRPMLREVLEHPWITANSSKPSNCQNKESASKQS"}
{"data": "Sample 1", "target": "Prothrombin, mature alpha-thrombin (F2, Homo sapiens, UniProt P00734)", "technique": "aptamer microarray, sandwich", "form": "DNA with 2'F-ANA", "matrix": "in vitro", "tested at": "200 nM", "notes": "whole 15-mer aptamer, many near background", "with": "Cy3 exosite-II aptamer, 400 nM", "reading": "higher = stronger binding", "oligonucleotide": "GGTTGGTGTGGTTGG"}
{"Modification": "2'F-ANA at 2 3 4 5 8 11 12 14", "mean fluorescence intensity [a.u.]": 53.3}
{"Modification": "2'F-ANA at 2 6 7 13 14 15", "mean fluorescence intensity [a.u.]": 120}
{"Modification": "2'F-ANA at 1 2 5 9 12 13 15", "mean fluorescence intensity [a.u.]": 76.8}
{"Modification": "2'F-ANA at 2 4 8 9 10 12 13 14", "mean fluorescence intensity [a.u.]": 62.4}
{"Modification": "2'F-ANA at 1 5 7 12 13 15", "mean fluorescence intensity [a.u.]": 84.7}
{"Modification": "2'F-ANA at 3 4 5 6 10 11 12 14", "mean fluorescence intensity [a.u.]": 48.7}
{"Modification": "2'F-ANA at 4 5 9 14", "mean fluorescence intensity [a.u.]": 65.6}
{"Modification": "2'F-ANA at 2 5 6 7 8 14", "mean fluorescence intensity [a.u.]": 48.7}
{"data": "Sample 2", "target": "DDIT3, bZIP domain (human)", "technique": "DHFR protein complementation", "matrix": "yeast", "notes": "single substitutions, most at no-binding floor", "relative to": "wild-type JUN-FOS pair", "reading": "higher = stronger binding", "starting sequence": "JUN, bZIP domain (human); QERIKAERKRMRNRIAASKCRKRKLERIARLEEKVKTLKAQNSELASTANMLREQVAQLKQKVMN; partner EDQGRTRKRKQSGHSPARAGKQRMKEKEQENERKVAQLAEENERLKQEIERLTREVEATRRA"}
{"Change": "K36V", "binding fitness [natural log]": -0.0154}
{"Change": "M51S", "binding fitness [natural log]": 0.0412}
{"Change": "S47A", "binding fitness [natural log]": 0.158}
{"Change": "A57Y", "binding fitness [natural log]": -0.0331}
{"Change": "V56C", "binding fitness [natural log]": -0.133}
{"Change": "L38N", "binding fitness [natural log]": -1.47}
{"Change": "I28P", "binding fitness [natural log]": -0.395}
{"Change": "A49Q", "binding fitness [natural log]": -0.727}
{"data": "Sample 3", "target": "ABI1, truncated, D143A, DHFR fusion (Arabidopsis thaliana, UniProt P49597)", "technique": "DHFR PCA, dose-response", "matrix": "yeast", "notes": "Hill fit, mean, not affinity", "with": "(+)-ABA, dose series", "reading": "lower = more sensitive", "starting sequence": "PYL1, truncated, DHFR fusion (Arabidopsis thaliana, UniProt Q8VZS8); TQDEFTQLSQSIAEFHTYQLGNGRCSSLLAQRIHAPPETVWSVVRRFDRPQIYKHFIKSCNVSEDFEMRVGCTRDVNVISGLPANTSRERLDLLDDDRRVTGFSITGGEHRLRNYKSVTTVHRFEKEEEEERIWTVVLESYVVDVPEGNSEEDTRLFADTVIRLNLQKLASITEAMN"}
{"Change": "R88N", "ABA EC50 [µM]": 3.87}
{"Change": "T106F", "ABA EC50 [µM]": 1.67}
{"Change": "D48C", "ABA EC50 [µM]": 134}
{"Change": "N22F", "ABA EC50 [µM]": 2.88}
{"Change": "T6D", "ABA EC50 [µM]": 1.47}
{"Change": "R98A", "ABA EC50 [µM]": 6.78}
{"Change": "H34M", "ABA EC50 [µM]": 3.53}
{"Change": "G71H", "ABA EC50 [µM]": 69.5}
{"data": "Further values, each from its own experiment"}
{"Structure (SMILES)": "CN(C)CCCn1cc(C2=C(c3c[nH]c4ccccc34)C(=O)NC2=O)c2ccccc21", "target": "Aurora kinase A (AURKA, Homo sapiens, UniProt O14965)", "observed": "enzyme activity", "mode": "inhibitor", "tested at": "0.5 µM", "relative to": "control", "endpoint": "remaining activity", "value": "108%"}
{"note": "For quick reference, copied from above (sample 2):"}
{"Change": "S47A", "binding fitness [natural log]": 0.158}
{"Change": "V56C", "binding fitness [natural log]": -0.133}
{"Change": "M51S", "binding fitness [natural log]": 0.0412}
{"Change": "A49Q", "binding fitness [natural log]": -0.727}
